Assay results collected from several papers.
Each line is one published result; not all experiments were run side by side. ± gives the spread as reported.

Compound	cell line	observed	technique	time	setting	with	IC50 [nM]
N.N.[Cl][Pt][Cl]	mouse primary hepatocytes, 3D culture		MTT	96 h			4900 ± 66
Cc1sc2c(c1C)C(c1ccc(Cl)cc1)=N[C@@H](CC(=O)Nc1ccc(O)cc1)c1nnc(C)n1-2	HD-MB03	cell growth		168 h	single agent		244
CCCc1cc(=O)n2nc(NCc3c(F)cc(Cl)cc3F)c(C#N)c2[nH]1	SEM	cell proliferation		72 h			> 50000
CN(C)CCNc1nc2cc(O)ccc2c2c1C(=O)c1ccccc1-2	ARPE-19	cytotoxicity	CCK-8	48 h			~2
Nc1ccc(C(=O)Oc2ccc3[nH]c4ccccc4c3c2)cc1	rat vascular smooth muscle cells	cell proliferation	MTT			PDGF-BB	3090
CN(c1ccc2c(c1)OCO2)c1nc(Cl)nc2ncccc12	RPMI-7951	cell viability		72 h			322 ± 45.4
O=c1c2ccccc2nc(S)n1-c1ccccc1	LoVo	cytotoxicity	LDH release	24 h	50% viability reduction		832000 ± 19500
Cc1ncsc1-c1ccc(CNC(=O)[C@@H]2C[C@@H](O)CN2C(=O)[C@@H](NC(=O)C2(F)CC2)C(C)(C)C)c(OCCOc2ccc(CN3CCN(c4cc(-c5ccccc5O)nnc4N)CC3)cc2)c1	SMARCA4-mutant lung cancer cells	clonogenic growth		10 days	median over cell lines		110
N.N.[Cl][Pt][Cl]	A549/DDP cisplatin-resistant, non-transfected	cell viability	MTT	48 h			66800
COc1c(C)c2c(c(O)c1C/C=C(\C)CCC(=O)O)C(=O)OC2	Kasumi 1	cell proliferation					1820
CC[C@H](Nc1nc(NCc2cnc(C)cc2C)c2ncn(C(C)C)c2n1)[C@@H](C)O	HD-MB03	cell growth		168 h	DMSO		501
O=C(NOC[C@H](O)CO)c1ccc(F)c(F)c1Nc1ccc(I)cc1F	JH-2-002	cell confluence					220
Cc1sc2c(c1C)C(c1ccc(Cl)cc1)=N[C@@H](CC(=O)OC(C)(C)C)c1nnc(C)n1-2	HD-MB03	cell growth			single agent		315
Cn1ncc(-c2nc(N[C@H]3CC[C@H](N)CC3)ncc2Cl)c1CC1CC1	AML blasts, primary, RUNX1-mutated	blast expansion			HUVEC co-culture		19
N[C@@H](Cc1ccc(N(CCCl)CCCl)cc1)C(=O)O	7702 normal human cells	cell growth	CCK-8	48 h			> 50000
